Experimental data pooled from the literature.
± marks the error that the study gave.
BCHE: Cholinesterase (BCHE, Homo sapiens, UniProt P06276)
UniProt P06276, sequence (whole entry, looked up): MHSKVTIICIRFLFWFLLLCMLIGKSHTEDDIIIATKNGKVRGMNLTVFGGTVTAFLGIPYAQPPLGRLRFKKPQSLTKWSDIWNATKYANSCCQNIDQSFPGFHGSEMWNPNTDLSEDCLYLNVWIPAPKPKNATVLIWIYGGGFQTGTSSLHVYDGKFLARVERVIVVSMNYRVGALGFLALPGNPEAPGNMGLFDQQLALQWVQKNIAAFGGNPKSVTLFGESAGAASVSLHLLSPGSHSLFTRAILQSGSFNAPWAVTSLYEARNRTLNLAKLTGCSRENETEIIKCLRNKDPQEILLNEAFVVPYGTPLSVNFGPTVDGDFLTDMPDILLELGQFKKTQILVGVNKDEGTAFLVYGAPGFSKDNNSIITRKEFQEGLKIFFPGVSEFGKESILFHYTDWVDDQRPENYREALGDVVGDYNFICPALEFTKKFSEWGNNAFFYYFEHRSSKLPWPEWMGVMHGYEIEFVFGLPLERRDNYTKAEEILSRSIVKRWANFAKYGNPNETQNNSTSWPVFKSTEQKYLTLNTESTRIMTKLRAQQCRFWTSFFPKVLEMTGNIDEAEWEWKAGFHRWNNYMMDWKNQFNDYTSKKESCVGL
UniProt P32198, sequence (whole entry, looked up): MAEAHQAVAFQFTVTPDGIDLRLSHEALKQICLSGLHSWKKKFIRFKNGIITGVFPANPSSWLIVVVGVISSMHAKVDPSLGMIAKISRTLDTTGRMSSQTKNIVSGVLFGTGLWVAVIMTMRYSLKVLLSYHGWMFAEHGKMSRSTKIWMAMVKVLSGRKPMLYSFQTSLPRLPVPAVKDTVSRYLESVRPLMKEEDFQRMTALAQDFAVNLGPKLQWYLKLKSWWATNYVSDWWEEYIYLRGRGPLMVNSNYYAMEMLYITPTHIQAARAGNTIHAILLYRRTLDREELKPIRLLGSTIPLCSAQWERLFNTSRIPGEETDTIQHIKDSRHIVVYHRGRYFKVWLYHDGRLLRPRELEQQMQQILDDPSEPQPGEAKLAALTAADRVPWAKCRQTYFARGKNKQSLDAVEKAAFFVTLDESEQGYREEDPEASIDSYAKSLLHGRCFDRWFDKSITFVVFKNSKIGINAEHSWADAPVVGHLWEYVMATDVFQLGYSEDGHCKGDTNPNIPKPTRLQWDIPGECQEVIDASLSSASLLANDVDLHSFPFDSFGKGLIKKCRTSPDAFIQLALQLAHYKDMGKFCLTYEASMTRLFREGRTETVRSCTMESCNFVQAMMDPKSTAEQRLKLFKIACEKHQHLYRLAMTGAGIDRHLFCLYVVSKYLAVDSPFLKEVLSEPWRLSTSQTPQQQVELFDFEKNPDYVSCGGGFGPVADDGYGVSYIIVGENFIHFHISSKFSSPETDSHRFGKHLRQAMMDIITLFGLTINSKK
UniProt O75116, sequence (whole entry, looked up): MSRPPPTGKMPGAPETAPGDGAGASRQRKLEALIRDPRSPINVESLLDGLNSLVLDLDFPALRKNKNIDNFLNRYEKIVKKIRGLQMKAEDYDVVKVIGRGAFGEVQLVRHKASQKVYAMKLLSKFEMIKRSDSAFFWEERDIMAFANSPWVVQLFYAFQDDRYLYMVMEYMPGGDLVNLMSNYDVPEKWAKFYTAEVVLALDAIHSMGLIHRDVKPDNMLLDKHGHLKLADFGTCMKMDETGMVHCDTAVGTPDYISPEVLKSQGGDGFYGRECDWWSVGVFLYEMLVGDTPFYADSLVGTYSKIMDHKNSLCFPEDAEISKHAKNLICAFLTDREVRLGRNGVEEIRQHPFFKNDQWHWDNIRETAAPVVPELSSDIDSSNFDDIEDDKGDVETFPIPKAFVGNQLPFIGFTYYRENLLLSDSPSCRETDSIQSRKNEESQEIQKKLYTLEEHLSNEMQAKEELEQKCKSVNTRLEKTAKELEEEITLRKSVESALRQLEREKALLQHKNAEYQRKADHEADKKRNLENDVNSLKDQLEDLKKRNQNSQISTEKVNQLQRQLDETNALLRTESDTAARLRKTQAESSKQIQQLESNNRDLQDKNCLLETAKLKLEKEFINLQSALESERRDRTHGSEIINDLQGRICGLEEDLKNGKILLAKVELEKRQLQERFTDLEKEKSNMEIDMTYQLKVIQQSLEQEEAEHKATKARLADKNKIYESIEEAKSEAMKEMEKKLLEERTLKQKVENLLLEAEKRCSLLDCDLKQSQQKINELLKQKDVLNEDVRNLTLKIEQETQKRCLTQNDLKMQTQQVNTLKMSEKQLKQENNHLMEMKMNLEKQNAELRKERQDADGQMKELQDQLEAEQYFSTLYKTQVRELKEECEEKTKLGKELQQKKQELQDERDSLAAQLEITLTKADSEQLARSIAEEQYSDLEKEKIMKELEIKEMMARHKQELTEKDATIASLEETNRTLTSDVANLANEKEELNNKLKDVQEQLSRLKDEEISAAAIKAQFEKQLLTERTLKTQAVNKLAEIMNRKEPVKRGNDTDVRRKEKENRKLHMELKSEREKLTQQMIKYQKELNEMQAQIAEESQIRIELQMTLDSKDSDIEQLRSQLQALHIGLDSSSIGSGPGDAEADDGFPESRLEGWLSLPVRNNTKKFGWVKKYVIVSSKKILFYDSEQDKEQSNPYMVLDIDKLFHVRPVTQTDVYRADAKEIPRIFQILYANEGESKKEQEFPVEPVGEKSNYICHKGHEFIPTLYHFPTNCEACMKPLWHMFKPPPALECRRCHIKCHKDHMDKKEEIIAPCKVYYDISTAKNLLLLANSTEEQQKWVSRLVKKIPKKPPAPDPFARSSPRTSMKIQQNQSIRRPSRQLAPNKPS
UniProt Q86Z02, sequence (whole entry, looked up): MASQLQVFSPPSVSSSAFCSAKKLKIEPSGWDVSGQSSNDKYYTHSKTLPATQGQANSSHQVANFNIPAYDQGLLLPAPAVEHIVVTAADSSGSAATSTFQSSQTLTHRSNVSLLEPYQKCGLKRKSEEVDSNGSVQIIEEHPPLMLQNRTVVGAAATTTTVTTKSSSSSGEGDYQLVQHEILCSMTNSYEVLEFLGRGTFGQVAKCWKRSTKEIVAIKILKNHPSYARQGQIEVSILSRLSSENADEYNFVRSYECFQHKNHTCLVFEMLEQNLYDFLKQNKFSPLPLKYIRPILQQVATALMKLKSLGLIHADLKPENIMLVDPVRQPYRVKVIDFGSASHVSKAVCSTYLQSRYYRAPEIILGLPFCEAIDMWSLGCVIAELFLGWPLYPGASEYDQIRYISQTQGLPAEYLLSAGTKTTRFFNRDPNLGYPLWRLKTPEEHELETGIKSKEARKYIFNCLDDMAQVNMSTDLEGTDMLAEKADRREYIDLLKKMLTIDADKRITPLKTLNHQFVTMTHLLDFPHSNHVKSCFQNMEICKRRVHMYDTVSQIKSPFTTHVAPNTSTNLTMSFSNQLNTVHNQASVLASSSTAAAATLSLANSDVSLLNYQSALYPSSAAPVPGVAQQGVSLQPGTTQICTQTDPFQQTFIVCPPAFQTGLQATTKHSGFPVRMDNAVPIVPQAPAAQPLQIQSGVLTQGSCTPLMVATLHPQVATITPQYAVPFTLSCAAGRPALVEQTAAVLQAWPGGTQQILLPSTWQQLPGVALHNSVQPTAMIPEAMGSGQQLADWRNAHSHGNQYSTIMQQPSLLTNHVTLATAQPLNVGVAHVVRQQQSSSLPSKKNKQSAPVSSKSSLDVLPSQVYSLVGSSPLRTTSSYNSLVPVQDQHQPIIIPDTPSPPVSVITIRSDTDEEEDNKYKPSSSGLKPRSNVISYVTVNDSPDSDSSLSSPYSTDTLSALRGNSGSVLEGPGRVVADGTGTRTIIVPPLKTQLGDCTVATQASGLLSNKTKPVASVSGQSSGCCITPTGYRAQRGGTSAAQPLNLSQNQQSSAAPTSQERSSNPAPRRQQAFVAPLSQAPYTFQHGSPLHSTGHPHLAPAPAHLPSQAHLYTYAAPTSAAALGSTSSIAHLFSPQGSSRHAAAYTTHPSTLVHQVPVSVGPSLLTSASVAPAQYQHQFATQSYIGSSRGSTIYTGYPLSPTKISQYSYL
UniProt Q92743, sequence (whole entry, looked up): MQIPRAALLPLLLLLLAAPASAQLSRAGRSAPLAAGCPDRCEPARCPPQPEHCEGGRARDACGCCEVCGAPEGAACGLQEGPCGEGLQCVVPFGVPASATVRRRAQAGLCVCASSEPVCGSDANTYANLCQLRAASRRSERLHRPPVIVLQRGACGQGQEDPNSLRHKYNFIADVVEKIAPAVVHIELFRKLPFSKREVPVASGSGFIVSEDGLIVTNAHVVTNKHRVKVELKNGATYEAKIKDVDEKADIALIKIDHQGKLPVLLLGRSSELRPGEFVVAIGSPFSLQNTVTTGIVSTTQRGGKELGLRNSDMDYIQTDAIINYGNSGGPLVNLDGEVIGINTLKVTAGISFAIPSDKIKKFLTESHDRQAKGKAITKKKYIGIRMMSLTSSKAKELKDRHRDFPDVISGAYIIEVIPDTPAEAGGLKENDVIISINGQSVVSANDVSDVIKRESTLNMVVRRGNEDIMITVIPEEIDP
UniProt P46663, sequence (whole entry, looked up): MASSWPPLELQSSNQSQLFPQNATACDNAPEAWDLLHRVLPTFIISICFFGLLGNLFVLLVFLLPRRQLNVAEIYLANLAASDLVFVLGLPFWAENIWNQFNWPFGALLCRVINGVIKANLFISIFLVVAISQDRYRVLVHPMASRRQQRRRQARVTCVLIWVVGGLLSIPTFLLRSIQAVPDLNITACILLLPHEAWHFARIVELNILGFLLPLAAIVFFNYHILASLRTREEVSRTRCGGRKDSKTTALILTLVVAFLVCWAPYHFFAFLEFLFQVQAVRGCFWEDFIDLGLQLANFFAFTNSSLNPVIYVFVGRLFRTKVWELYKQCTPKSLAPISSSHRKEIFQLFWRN

CCCCCCC[N+](CC)(CC)CCCCc1ccc(Cl)cc1  IC50 (BCHE; inhibitor; with Triton): 7.83 ± 1.79 µM
COc1ccc(N2C(=O)N(c3c(C)cccc3Cl)Cc3cnc(Nc4ccc(C5CCN(C)CC5)cc4OC)nc32)nc1  inhibition (ROCK2 (Homo sapiens, UniProt O75116); kinase activity; 0.5 µM): -0.45%
FC(F)(F)c1cccc(Nc2nc(NCCOc3ccccc3)nc3[nH]cnc23)c1  inhibition (Cyclin-dependent kinase 5, with p25 (CDK5, Homo sapiens, UniProt Q00535); Z'-LYTE or Adapta; 5 µM): 10%
CN1CCN(c2cc(-c3ccncc3)c(-c3ccc4ccccc4c3)nn2)CC1  inhibition (CCKBR (Homo sapiens, UniProt P32239); antagonist, FLIPR; 10 µM): -3.6%
COc1cc(Nc2ncc(F)c(Nc3ccc4c(n3)NC(=O)C(C)(C)O4)n2)cc(OC)c1OC  inhibition (HIPK1 (Homo sapiens, UniProt Q86Z02); KINOMEscan; 10 µM): 65%
CN(CCN1CCC(OC(=O)Nc2ccccc2-c2ccccc2)CC1)C(=O)c1ccc(CN2CCC(C(N)=O)CC2)cc1  inhibition (phosphodiesterase I; enzyme activity; 1 µM): 3%
Oc1ccc2c3c1O[C@H]1[C@@H](O)CC[C@@]4(O)[C@@H](C2)N(CC2CCC2)CC[C@]314  log2 fold change (GPR37 (Homo sapiens, UniProt O15354); β-arrestin recruitment, TANGO luminescence; concentration not given; relative to: basal luminescence): 0.536
O=C(Nc1cnccc1Cl)N1CCN(Cc2ccc3c(c2)OC(F)(F)O3)CC1  inhibition (BDKRB1 (Homo sapiens, UniProt P46663); binding; 10 µM, together with: [3H][des-Arg10]kallidin): 16%
Cc1ncc(C)n2nc(/C=C/c3nc(N4CCCC4)cc(N4CCOCC4)n3)nc12  inhibition (sodium channel site 2; radioligand binding; 10 µM): 4%
C[C@@H](C1=C(CCN(C)C)Cc2ccccc21)c1ccccn1  IC50 (BCHE; inhibitor, fluorometric): 1.09 ± 0.4 µM
COCc1c(-c2cc3cc(C)cc(OC)c3s2)c2c(N)ncnn2c1CN1CCNC(=O)C1  inhibition (PGR (Homo sapiens, UniProt P06401); binding, radioligand binding; 10 µM): 27%
CN(C(=O)n1cnc(-c2ccc[n+]([O-])c2)c1)C1CCCCC1  inhibition (Carnitine O-palmitoyltransferase 1, liver isoform (Rattus norvegicus, UniProt P32198); enzyme activity; 10 µM): -12%
O=C(c1ccc(Cl)cc1)N1CCN2C(=O)N(OC(=O)N3CCOc4ccccc43)C(=O)C2C1 (stereo not shown)  mean protein ratio (Serine protease HTRA1 (Homo sapiens, UniProt Q92743); MS-based ABPP; SW-620 conditioned medium; 10 µM, 1 h, 37 °C; relative to: treated over control): 1.19

For quick reference, copied from above:
C[C@@H](C1=C(CCN(C)C)Cc2ccccc21)c1ccccn1  IC50 (BCHE; inhibitor, fluorometric): 1.09 ± 0.4 µM
Oc1ccc2c3c1O[C@H]1[C@@H](O)CC[C@@]4(O)[C@@H](C2)N(CC2CCC2)CC[C@]314  log2 fold change (GPR37 (Homo sapiens, UniProt O15354); β-arrestin recruitment, TANGO luminescence; concentration not given; relative to: basal luminescence): 0.536
